Results from different studies.
Each line is one published result; not all experiments were run side by side.
Target: Serine/threonine-protein kinase STK11 (STK11, Homo sapiens, UniProt Q15831)

COc1cc(Nc2nc(C)cc(-c3cnn4nc(OC)ccc34)n2)cc(C(F)(F)F)c1
remaining activity (inhibitor; 1 µM, LKB1; reference: control): 100%

CNS(=O)(=O)Nc1nccc(Cc2c(C)c3ccc(Oc4ncccc4F)cc3oc2=O)c1F
remaining binding (binding, competition with immobilised ligand; 10 µM): 76%

C=C1CCCCCCCCCC(CO)C1=O (stereo not shown)
remaining binding (cell-free assay, competition with immobilised ligand; 10 µM): 100%

O=C=[N][Ru-4]123([n]4c5ccc(O)cc5c5c6c(c7cc(F)c[n+]1c7c54)C(=O)NC6=O)[S+]1CC[S+]2CC[S+]3CC1 (stereo not shown)
remaining activity (enzyme activity; 100 nM, human enzyme, together with: 10 µM ATP; reference: untreated): 106%

CN1CCN(Cc2ccc(NC(=O)c3cccc(C#Cc4cnc(N)c5ncccc45)c3)cc2C(F)(F)F)CC1
remaining binding (cell-free assay, competition with immobilised ligand; 0.5 µM): 61%

CNC(=O)C1CCN(c2cc(C)c(F)cc2NC(=O)c2ccc(-c3cc(O)ccc3C)c(C)c2)CC1
remaining binding (binding, competition with immobilised ligand; 1 µM): 81%

Cc1nc2c(F)cc(-c3nc(Nc4ccc(CNC(=O)CCCCCCC(=O)NO)cc4)ncc3F)cc2n1C(C)C
inhibition (enzyme activity, inhibitor; 1 µM): 34%

NC(=O)[C@@H](O)C[C@H]1CCc2sc3ncnc(O[C@H]4CC[C@H](N5CCOCC5)CC4)c3c21
inhibition (enzyme activity, inhibitor; 10 µM): 33%

Nc1ncc(-c2cc(-c3cnn(CC(F)(F)F)c3)ncc2F)nc1C(=O)NC1CNCC(F)C1 (stereo not shown)
remaining activity (enzyme activity; 1 µM; reference: DMSO control): 95.2%

CNC(=O)C[C@H](Cc1ccc(C#N)cc1)NC(=O)c1cc(-c2ccc(CN[C@H](C)c3ccc(C)cc3)o2)ccc1Cl
activity vs control (enzyme activity, inhibitor; 1 µM): 99%

C=CC(=O)N1CCCC(n2c(=O)c3ncccc3n(Cc3ccc(Oc4ccccc4)cc3)c2=O)C1 (stereo not shown)
remaining binding (cell-free assay, competition with immobilised ligand; 1 µM): 87%

CN1CC[C@@H](COc2cnc(C#N)cc2-c2ccn3nc(NC(=O)C4CC4)cc3c2)C1
inhibition (enzyme activity, inhibitor; 1 µM): 5%

COc1ccc(NC(=O)Nc2ccc3c(c2)C(=O)N(C(C)CO)CC(C)C(CN(C)Cc2ccc4c(c2)OCO4)O3)cc1 (stereo not shown)
remaining binding (binding, competition with immobilised ligand; 10 µM): 39%

C=CC(=O)N1CCc2ccc(-n3c(=O)ccc4cnc5ccc(-c6cnn(C)c6)cc5c43)cc21
remaining binding (KINOMEscan; 1 µM; reference: DMSO control): 100%

COc1c(Cl)cccc1Nc1c(-c2ccncc2C#C[C@@]2(C)CCCN2C(=O)/C=C/CN(C)C)[nH]c2c1C(=O)NCC2
remaining binding (binding, competition with immobilised ligand; 3 µM): 53%

CC(C)=CC1OC(C)(C)C2C=C3C(=O)C(Cl)=CC(O)C3C3C(O)C4OC4C(=O)C132 (stereo not shown)
remaining binding (cell-free assay, competition with immobilised ligand; 10 µM): 100%

For quick reference, copied from above:
Nc1ncc(-c2cc(-c3cnn(CC(F)(F)F)c3)ncc2F)nc1C(=O)NC1CNCC(F)C1 (stereo not shown)
remaining activity (enzyme activity; 1 µM; reference: DMSO control): 95.2%
